Measurements collected from several papers.
Each numbered part is a random draw from the data of one study; scales do not carry over between parts.

Sample 1
Target: Histone acetyltransferase KAT6A, winged helix 2, GST fusion (KAT6A, Homo sapiens, UniProt Q92794, residues 85-181)
Technique: protein binding microarray
Form: double-stranded DNA, one strand shown
Sample: in vitro
Concentration: not given
Notes: 8-mer, flanks averaged, mean of 2 arrays, mostly near background
Baseline: not given
Direction: higher = stronger binding
Endpoint: E-score
Target sequence (chain): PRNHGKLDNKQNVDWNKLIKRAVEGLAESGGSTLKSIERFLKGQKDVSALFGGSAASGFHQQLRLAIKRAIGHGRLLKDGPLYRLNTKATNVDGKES
CAAGCCAA: 0.094
ACAGTGGG: -0.015
TATTCAAA: 0.233
CATATGCC: -0.138

Sample 2
Target: Sal-like protein 4, full length isoform A (SALL4, Homo sapiens, UniProt Q9UJQ4, residues 1-1053)
Chain of UniProt Q9UJQ4 (whole entry, looked up): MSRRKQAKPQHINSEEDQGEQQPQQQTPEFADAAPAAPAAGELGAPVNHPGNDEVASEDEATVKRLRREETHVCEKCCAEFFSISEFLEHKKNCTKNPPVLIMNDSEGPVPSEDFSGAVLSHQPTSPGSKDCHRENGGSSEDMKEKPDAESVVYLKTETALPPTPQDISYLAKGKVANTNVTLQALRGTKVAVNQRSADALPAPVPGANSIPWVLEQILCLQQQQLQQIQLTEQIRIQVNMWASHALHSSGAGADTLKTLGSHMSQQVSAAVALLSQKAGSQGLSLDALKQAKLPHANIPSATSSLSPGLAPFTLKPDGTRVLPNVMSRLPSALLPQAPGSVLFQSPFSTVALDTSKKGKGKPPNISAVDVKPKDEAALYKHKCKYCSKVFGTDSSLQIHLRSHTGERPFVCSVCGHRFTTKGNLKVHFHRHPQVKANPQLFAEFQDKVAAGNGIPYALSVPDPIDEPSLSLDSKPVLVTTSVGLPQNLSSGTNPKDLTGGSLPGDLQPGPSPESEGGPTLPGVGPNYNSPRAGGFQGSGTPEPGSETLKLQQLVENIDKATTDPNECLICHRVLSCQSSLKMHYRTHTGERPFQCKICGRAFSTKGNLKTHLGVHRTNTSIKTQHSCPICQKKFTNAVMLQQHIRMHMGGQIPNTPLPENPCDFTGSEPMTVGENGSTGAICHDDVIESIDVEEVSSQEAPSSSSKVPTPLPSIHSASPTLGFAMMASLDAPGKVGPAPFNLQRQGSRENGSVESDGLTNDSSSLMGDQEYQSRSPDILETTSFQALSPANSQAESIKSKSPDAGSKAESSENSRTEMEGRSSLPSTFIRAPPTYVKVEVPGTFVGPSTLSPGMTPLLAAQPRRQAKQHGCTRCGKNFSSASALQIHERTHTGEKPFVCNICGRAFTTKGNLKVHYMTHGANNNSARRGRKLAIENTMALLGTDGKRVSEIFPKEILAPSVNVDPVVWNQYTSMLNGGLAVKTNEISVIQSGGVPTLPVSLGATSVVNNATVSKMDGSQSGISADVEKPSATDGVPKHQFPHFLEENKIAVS
Technique: universal PBM
Form: double-stranded DNA, one strand shown
Sample: in vitro
Concentration: 600 nM
Notes: 8-mer, flanks averaged, mean of replicates
Direction: higher = stronger binding
Endpoint: E-score
CGGGATCC: -0.28
GACATTAA: 0.244
ACCCTGAC: -0.169

Single results of other studies
FOXA2 forkhead domain: Hepatocyte nuclear factor 3-beta, forkhead domain (FOXA2, Homo sapiens, UniProt Q9Y261, residues 142-269)
Chain of UniProt Q9Y261 (142-269, looked up): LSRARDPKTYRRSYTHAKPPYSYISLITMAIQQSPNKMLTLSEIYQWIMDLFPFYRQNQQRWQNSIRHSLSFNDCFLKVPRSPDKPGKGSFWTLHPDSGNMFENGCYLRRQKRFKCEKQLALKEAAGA
GTATATAA  E-score (FOXA2 forkhead domain; protein-binding microarray; double-stranded DNA, one strand shown, in vitro; not given, k-mer, scored over probes, only values ≥0.25; higher = stronger binding): 0.341
PhoQ, residues 284 288 289 292 302 303 TASMAF  fold induction (PhoP, residues 12 14 15 18 19 GQAIL (Escherichia coli, UniProt P23836); Sort-seq, refers to: YFP reporter; E. coli; PhoQ-PhoP variant library, added: 10 µM Mg2+; baseline: high Mg2+ state, higher = stronger signaling): 17.5
ACAACACT  E-score (FOXA2 forkhead domain; protein-binding microarray; double-stranded DNA, one strand shown, in vitro; not given, k-mer, scored over probes, only values ≥0.25; higher = stronger binding): 0.323
ATACTATA  E-score (FOXA2 forkhead domain; protein-binding microarray; double-stranded DNA, one strand shown, in vitro; not given, k-mer, scored over probes, only values ≥0.25; higher = stronger binding): 0.256

Repeated from above (single results of other studies):
GTATATAA  E-score (FOXA2 forkhead domain; protein-binding microarray; double-stranded DNA, one strand shown, in vitro; not given, k-mer, scored over probes, only values ≥0.25; higher = stronger binding): 0.341
PhoQ, residues 284 288 289 292 302 303 TASMAF  fold induction (PhoP, residues 12 14 15 18 19 GQAIL (Escherichia coli, UniProt P23836); Sort-seq, refers to: YFP reporter; E. coli; PhoQ-PhoP variant library, added: 10 µM Mg2+; baseline: high Mg2+ state, higher = stronger signaling): 17.5
